Results from different studies.
Parts stem from different laboratories: compare values within a part only. “And” joins repeats or separate records; there may be more than shown.
Chain of UniProt Q5BJF2 (whole entry, looked up): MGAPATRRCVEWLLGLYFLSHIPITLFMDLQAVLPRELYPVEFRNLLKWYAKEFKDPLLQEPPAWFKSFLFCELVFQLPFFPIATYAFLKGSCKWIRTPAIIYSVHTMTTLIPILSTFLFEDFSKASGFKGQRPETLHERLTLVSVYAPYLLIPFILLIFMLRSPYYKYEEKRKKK
Chain of UniProt P08912 (whole entry, looked up): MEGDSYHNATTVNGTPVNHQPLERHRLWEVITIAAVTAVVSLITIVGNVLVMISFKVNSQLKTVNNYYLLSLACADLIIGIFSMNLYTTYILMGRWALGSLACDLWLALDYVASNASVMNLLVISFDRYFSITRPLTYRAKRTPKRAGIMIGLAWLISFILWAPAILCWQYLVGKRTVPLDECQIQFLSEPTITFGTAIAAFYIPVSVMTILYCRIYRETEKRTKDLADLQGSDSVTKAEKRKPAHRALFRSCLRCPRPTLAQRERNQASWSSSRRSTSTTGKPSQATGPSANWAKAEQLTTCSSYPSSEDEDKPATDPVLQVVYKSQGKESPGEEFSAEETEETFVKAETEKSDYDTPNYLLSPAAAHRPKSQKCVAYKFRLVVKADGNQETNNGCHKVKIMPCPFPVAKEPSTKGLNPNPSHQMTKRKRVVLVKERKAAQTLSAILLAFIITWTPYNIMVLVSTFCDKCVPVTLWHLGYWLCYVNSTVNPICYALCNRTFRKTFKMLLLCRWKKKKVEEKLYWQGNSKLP
Chain of UniProt P41595 (whole entry, looked up): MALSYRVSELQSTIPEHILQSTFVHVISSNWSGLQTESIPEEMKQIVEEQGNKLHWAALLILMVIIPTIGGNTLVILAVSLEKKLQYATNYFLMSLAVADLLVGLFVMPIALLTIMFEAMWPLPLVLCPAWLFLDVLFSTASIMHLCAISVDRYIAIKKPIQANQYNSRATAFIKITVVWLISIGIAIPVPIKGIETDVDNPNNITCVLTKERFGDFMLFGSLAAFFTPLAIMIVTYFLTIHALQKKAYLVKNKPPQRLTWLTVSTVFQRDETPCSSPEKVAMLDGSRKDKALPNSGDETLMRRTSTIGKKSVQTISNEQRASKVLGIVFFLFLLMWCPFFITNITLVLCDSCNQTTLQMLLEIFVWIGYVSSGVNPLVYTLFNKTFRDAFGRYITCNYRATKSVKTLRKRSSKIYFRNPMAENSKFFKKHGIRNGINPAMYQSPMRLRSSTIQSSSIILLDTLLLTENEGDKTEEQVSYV

Set 1
Target: DNA polymerase theta, ATPase domain (POLQ, Homo sapiens, UniProt O75417)
Chain of UniProt O75417 (whole entry, unmodified, looked up): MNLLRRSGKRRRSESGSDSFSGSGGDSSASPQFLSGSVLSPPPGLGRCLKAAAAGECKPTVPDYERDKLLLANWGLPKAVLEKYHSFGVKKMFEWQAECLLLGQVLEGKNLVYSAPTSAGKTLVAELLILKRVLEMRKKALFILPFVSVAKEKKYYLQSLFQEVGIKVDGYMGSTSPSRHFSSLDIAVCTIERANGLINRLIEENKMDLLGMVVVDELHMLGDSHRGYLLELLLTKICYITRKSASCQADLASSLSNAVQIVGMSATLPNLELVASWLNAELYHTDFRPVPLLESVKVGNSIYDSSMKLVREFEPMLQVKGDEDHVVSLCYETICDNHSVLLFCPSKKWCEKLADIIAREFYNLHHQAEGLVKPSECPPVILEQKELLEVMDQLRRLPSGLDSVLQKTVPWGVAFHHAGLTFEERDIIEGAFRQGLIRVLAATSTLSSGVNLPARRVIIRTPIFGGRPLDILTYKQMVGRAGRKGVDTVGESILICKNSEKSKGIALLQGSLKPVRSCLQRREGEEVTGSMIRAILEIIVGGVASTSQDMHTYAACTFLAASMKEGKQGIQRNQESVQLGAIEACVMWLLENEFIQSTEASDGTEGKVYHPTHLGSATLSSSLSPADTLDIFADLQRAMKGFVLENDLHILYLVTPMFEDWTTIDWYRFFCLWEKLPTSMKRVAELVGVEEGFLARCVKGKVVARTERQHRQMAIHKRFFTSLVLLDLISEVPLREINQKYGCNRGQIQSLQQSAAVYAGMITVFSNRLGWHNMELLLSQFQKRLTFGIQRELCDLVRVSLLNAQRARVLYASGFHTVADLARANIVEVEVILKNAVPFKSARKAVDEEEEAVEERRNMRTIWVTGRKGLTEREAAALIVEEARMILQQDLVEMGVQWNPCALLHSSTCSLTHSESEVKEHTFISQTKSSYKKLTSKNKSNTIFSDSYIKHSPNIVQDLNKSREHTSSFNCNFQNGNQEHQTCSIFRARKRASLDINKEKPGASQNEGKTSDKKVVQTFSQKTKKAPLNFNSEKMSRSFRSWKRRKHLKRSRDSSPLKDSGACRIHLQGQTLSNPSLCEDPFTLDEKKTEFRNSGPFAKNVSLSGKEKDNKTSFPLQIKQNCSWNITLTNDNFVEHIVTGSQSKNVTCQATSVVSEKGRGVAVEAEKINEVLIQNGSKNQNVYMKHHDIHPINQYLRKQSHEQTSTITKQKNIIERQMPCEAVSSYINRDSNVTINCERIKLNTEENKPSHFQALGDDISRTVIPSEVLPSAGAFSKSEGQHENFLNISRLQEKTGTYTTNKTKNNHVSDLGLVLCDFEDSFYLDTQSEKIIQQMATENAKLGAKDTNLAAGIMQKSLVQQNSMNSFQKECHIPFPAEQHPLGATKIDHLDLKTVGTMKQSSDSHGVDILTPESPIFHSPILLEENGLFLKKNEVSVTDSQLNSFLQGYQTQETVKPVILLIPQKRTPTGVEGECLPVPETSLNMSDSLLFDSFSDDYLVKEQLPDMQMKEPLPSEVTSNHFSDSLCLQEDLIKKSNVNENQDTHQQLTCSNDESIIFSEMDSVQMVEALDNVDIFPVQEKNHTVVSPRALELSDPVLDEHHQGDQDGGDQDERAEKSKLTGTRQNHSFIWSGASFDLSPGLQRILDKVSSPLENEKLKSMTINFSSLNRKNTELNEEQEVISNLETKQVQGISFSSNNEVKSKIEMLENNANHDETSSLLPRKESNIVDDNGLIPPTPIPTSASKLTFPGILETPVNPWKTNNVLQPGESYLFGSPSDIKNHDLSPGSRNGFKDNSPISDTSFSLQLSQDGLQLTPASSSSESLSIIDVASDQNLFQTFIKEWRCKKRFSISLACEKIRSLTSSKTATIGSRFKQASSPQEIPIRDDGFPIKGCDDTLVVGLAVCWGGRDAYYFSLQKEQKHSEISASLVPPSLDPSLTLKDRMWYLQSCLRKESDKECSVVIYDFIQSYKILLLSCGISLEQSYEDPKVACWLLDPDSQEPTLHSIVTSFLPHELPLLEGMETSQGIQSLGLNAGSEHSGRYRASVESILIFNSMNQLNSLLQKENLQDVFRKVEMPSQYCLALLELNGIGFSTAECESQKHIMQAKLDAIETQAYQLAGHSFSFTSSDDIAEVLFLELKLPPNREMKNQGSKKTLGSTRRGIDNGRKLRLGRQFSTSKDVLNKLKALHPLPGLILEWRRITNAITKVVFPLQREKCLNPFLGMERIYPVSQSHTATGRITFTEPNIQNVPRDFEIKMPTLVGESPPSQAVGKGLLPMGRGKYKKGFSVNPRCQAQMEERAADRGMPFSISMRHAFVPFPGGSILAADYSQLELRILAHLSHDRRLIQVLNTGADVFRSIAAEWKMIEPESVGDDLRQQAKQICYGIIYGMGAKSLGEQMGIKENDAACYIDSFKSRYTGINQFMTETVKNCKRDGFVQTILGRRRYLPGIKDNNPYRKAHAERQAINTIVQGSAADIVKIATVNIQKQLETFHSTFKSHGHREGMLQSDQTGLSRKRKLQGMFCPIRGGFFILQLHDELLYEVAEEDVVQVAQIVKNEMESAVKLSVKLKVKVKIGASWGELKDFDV
Effect on: enzyme activity
Action: inhibitor
Concentration: 77 µM
Relative to: untreated
SMILES | remaining activity
COC(=O)C1=C(C)NC(C)=C(C(=O)OCC(C)C)C1c1ccccc1[N+](=O)[O-] (centres unmarked) | 99.8% and 103%
OC[C@@H](O)[C@@H](O)[C@H](O)[C@H](O)CO | 101%
Oc1ccccc1O | 99.5%
Cn1cnc2c(F)c(Nc3ccc(Br)cc3F)c(C(=O)NOCCO)cc21 | 98.7%
NS(=O)(=O)c1cc2c(cc1C(F)(F)F)NC(Cc1ccccc1)NS2(=O)=O (centres unmarked) | 99.1%
CC[n+]1c(/C=C/N(C)c2ccccc2)n(-c2ccccc2)c2ccc(-c3nc4ccccc4s3)cc21 | 96.9%
CCCC(C(=O)OCCN(CC)CC)(c1ccccc1)c1ccccc1 | 101%
COc1nccc(-c2c(-c3ccc(F)cc3)ncn2[C@H]2CC[C@H](O)CC2)n1 | 83.3%
NCC[C@H](O)C(=O)N[C@@H]1C[C@H](N)[C@@H](O[C@H]2O[C@H](CN)[C@@H](O)[C@H](O)[C@H]2O)[C@H](O)[C@H]1O[C@H]1O[C@H](CO)[C@@H](O)[C@H](N)[C@H]1O | 96%
Nc1nc(N)nc(-c2cc(Cl)ccc2Cl)n1 | 95.5%
O=[N+]([O-])c1cccc2c(Br)[nH]nc12 | 104%
O=[N+]([O-])c1ccc(CNc2nc(NCc3cccc(C(F)(F)F)c3)nc3nc[nH]c23)cc1 | 90.1%
C=C1CC[C@H](O)C/C1=C/C=C1\CCC[C@]2(C)[C@@H]([C@H](C)/C=C/[C@H](C)C(C)C)CC[C@@H]12 | 109% and 89.1%
COc1ccc(NC(=O)c2ccc(-c3ccc(-c4noc(C)n4)cc3C)cc2)cc1N1CCN(C)CC1 | 102%
O=C(O)[C@@H](O)[C@H](O)[C@H](O)[C@@H](O)C(=O)O | 93.8%

Set 2
Target: Insulin receptor-related protein (INSRR, Homo sapiens, UniProt P14616)
Chain of UniProt P14616 (whole entry, looked up): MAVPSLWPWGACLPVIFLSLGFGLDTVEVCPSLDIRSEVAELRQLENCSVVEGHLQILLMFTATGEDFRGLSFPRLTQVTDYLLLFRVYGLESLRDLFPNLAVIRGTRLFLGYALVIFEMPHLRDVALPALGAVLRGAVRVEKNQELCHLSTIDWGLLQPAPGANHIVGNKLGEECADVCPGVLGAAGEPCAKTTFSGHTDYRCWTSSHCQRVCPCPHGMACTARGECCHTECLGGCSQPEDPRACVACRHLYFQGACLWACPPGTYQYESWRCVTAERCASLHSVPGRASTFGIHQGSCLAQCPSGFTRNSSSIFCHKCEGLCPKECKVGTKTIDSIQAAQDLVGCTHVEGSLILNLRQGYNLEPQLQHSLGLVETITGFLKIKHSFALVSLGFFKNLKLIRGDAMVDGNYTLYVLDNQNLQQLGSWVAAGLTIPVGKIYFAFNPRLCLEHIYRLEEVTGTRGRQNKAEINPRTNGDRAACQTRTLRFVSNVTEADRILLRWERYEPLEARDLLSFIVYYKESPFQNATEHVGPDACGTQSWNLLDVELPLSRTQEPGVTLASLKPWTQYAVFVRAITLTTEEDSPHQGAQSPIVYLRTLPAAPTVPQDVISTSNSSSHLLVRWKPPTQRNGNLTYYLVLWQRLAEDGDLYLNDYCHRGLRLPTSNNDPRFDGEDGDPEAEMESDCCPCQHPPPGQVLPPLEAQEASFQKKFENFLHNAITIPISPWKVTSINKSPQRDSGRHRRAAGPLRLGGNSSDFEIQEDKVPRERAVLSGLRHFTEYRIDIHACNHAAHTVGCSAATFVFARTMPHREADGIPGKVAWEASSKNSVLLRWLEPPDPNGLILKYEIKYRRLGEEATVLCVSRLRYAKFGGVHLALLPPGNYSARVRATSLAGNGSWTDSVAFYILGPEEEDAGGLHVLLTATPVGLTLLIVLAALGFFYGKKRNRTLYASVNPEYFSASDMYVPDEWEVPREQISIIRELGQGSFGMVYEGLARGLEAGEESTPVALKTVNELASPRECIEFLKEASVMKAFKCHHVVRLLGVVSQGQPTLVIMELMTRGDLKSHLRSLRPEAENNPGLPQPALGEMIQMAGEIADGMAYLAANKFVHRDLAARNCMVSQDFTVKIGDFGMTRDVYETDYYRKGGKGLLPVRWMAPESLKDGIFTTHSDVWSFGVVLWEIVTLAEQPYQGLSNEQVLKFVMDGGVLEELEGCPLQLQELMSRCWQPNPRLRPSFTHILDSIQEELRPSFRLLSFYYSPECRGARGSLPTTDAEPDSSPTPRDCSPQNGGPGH
Effect on: enzyme activity
Action: inhibitor
Concentration: 0.5 µM
Relative to: control
SMILES | remaining activity [%]
COc1cc2c(Nc3ccc(Br)cc3F)ncnc2cc1OCC1CCN(C)CC1 | 105
Clc1ccc(Nc2nnc(Cc3ccncc3)c3ccccc23)cc1 | 93.5
CC(C)(C)c1nc2c3cc[nH]c(=O)c3c3cc(F)ccc3c2[nH]1 | 75.2
c1cc(-c2cnn3cc(-c4ccc(OCCN5CCCCC5)cc4)cnc23)ccn1 | 90.1
CCN(CC)CCCCN1c2ccccc2Oc2ccc(Cl)cc21 | 102
N#C/C(=C(/N)SC1C=CC=CC1)c1cccc(C(O)c2ccncc2)c1 (centres unmarked) | 95.3
NC(=O)c1cccc(-c2cc(Nc3ccc(OC(F)(F)F)cc3)ncn2)c1 | 90.7
O=C(O)/C=C/c1cc(Br)c(Br)c(Br)c1Br | 88.2
CCCCc1c(-c2ccc(O)cc2)[nH]c2nccnc12 | 86.6
O=C(c1ccccc1)c1ccc(N2CCOCC2)cc1O | 97.6
CC(C)n1cnc2c(Nc3cccc(Cl)c3)nc(NCCO)nc21 | 82.5
CNc1cc2c(Nc3cccc(Br)c3)ncnc2cn1 | 98.2
N#CC(c1ccnc(NCCc2cccnc2)n1)c1nc2ccccc2s1 (centres unmarked) | 92.2
NC(=O)c1ccc(-c2nc(-c3ccc4c(c3)OCCO4)c(-c3ccccn3)[nH]2)cc1 | 86.6
O=c1c(-c2ccc(F)cc2)c(-c2ccncc2)[nH]n1-c1ccc(Cl)cc1 | 95.4
Nc1nc(Nc2ccc(S(N)(=O)=O)cc2)nn1C(=S)Nc1c(F)cccc1F | 86.5
CC(C)N(CCC(=O)c1ccc2ccccc2c1)Cc1ccccc1 | 90.1
O=C1NC(=O)/C(=C/c2ccc3c(c2)OC(F)(F)O3)S1 | 110
O=C1c2ccccc2-c2nc3nnnn3nc21 | 86.7
FC(F)(F)c1ccc(/C=C/c2nc(COc3ccc(CCCCn4ccnn4)cc3)co2)cc1 | 101
COc1cc2c(N3CCN(C(=O)Nc4ccc(OC(C)C)cc4)CC3)ncnc2cc1OCCCN1CCCCC1 | 98.9
O=Nc1c(-c2c(O)[nH]c3ccccc23)[nH]c2ccccc12 | 35.7
C[C@@H](N)[C@H]1CC[C@H](C(=O)Nc2ccncc2)CC1 | 97.2

Set 3
Compound: O=C(Nc1ccccc1)Nc1cccc(Oc2ccc3nccn3n2)c1
Concentration: 1 µM
target | assay | conditions | scale | remaining binding [%]
EPHB6 (Homo sapiens, UniProt O15197) | competitive binding panel |  | relative to: vehicle | 91
MATK (Homo sapiens, UniProt P42679) | competitive binding | CTK |  | 100
CDK19 (Homo sapiens, UniProt Q9BWU1) | competitive binding panel, measured: CDK11 |  | relative to: vehicle | 100
CLK1 (Homo sapiens, UniProt P49759) | competitive binding panel |  | relative to: vehicle | 94
PAK5 (Homo sapiens, UniProt Q9P286) | competitive binding panel, measured: PAK7 |  | relative to: vehicle | 71
PIK3CA (Homo sapiens, UniProt P42336, Q546K) | competitive binding panel |  | relative to: vehicle | 100
PLK3 (Homo sapiens, UniProt Q9H4B4) | competitive binding panel |  | relative to: vehicle | 100
MAP3K1 (Homo sapiens, UniProt Q13233) | competitive binding panel |  | relative to: vehicle | 100
RPS6KA4 (Homo sapiens, UniProt O75676) | competitive binding scan | C-terminal kinase domain 2 |  | 100
TGFBR2 (Homo sapiens, UniProt P37173) | competitive binding panel |  | relative to: vehicle | 91
NTRK1 (Homo sapiens, UniProt P04629) | competitive binding | TRKA |  | 100
FLT3 (Homo sapiens, UniProt P36888) | competitive binding panel |  | relative to: vehicle | 96

Set 4
SMILES: CC(=O)C1=C(C)N(c2cccc(C(F)(F)F)c2)C(=O)N[C@@H]1c1ccc(C#N)nc1
Effect on: binding
Method: radioligand binding
Concentration: 10 µM
target | inhibition [%]
DRD2 (Homo sapiens, UniProt P14416) | 0.569
ADRA1A (Homo sapiens, UniProt P35348) | -14.2
CHRM5 (Homo sapiens, UniProt P08912) | -6.78
SIGMAR1 (Homo sapiens, UniProt Q99720) | -18.6
HTR2B (Homo sapiens, UniProt P41595) | 6.06
ADRA2A (Homo sapiens, UniProt P08913) | 10.5
ADRB1 (Homo sapiens, UniProt P08588) | 60
HTR6 (Homo sapiens, UniProt P50406) | -6.02
TMEM97 (Homo sapiens, UniProt Q5BJF2) | 35.9
DRD3 (Homo sapiens, UniProt P35462) | -17.7
DRD4 (Homo sapiens, UniProt P21917) | 15.9
ADRB2 (Homo sapiens, UniProt P07550) | 24.3
